Experimental data gathered from unrelated publications.
Each line is one published result; not all experiments were run side by side. Several values in a cell are separate wells, animals, samples, runs or records. Square brackets hold non-standard residues; d marks the D form. Ends that are not written are not given here.
KDM5A: KDM5A 287-347 (Homo sapiens, UniProt P29375)
B1: IGFL3 24-125 (Homo sapiens, UniProt Q6UXB1); chain GTTDAPVGSGLWLCQPTPRCGNKIYNPSEQCCYDDAILSLKETRRCGSTCTFWPCFELCCPESFGPQQKFLVKLRVLGMKSQCHLSPISRSCTRNRRHVLYP
B2: Cacng2 (Rattus norvegicus, UniProt Q71RJ2); sequence looked up; chain MGLFDRGVQMLLTTVGAFAAFSLMTIAVGTDYWLYSRGVCKTKSVSENETSKKNEEVMTHSGLWRTCCLEGNFKGLCKQIDHFPEDADYEADTAEYFLRAVRASSIFPILSVILLFMGGLCIAASEFYKTRHNIILSAGIFFVSAGLSNIIGIIVYISANAGDPSKSDSKKNSYSYGWSFYFGALSFIIAEMVGVLAVHMFIDRHKQLRATARATDYLQASAITRIPSYRYRYQRRSRSSSRSTEPSHSRDASPVGVKGFNTLPSTEISMYTLSRDPLKAATTPTATYNSDRDNSFLQVHNCIQKDSKDSLHANTANRRTTPV
B3: Ric8b 1-483 A449W (Mus musculus, UniProt Q80XE1); chain MDEERALYIVRAGEAGAIERVLRDYSDKHRATFKFESADEDKRKKLCEGIFKVLVKEVPTTCQVSCLEVLRILSRDKKILVPVTTKENMQILLRLAKLHESDDSLEKVSEFPVIVESLKCLCNIVFNSQMAQQLSLELNLAAKLCNLLRKCKDRKFINDIKCFDLRLLFVLSLLHTDIRSQLRYELQGLPLLTQILESAFSIKWTDEYESAIDHNGPPLSPQETDCAIEALKALFNVTVDSWKVHKESDSHQFRVMAAVLRHCLLIVGPTEDKTEELHSNAVNLLSNVPVSCLDVLICPLTHEETAQEAATLDELPSDKTTEKDTALKNSTMVYNGMNMEAIHVLLNFMEKRIDKGSSYREGLTPVLSLLTECSRAHRNIRKFLKDQVLPPLRDVTNRPEVGSTVRNKLVRLMTHVDLGVKQIAAEFLFVLCKERVDSLLKYTGYGNAWGLLAARGLLAGGRGDNWYSEDEDTDTEEYKNAKP
B4: EnvC 278-419 V353A (Escherichia coli, UniProt P37690); chain STESEKSLMSRTGGLGAPRGQAFWPVRGPTLHRYGEQLQGELRWKGMVIGASEGTEVKAIADGRVILADWLQGYGLAVVVEHGKGDMSLYGYNQSALVSVGSQVRAGQPIALVGSSGGQGRPSLYFEIRRQGQAVNPQPWLGR

Substance	tested on	test	system	conditions	how to read	quantity	value
B1 (IGFL3 24-125)	IGFLR1 23-159 (Homo sapiens, UniProt Q9H665)	SPR		pH 7.4, 25 °C, NaCl 0.15 M		koff	9.31e-05 s⁻¹
fluorescein-SPT[pS]PSY[pS]PTS (POLR2A CTD peptide consensus heptads, 11-aa; N-fluorescein, pS4, pS8; fluorescein = fluorescein label (fluorescent) on the peptide N-terminus; pS = N[C@@H](COP(=O)(O)O)C(=O)O)	Rngtt 227-567 R330A/K331A (Mus musculus, UniProt O55236)	fluorescence polarisation	peptide	pH 7.0, 23 °C		binding	binds
Smad1 linker peptide, pS206/pS214 (Homo sapiens)	YAP1 WW1+WW2	ITC			baseline: unphosphorylated extended Smad1 peptide, higher = stronger interaction	relative interaction	2.2 fold
CYB5A holo (Homo sapiens, UniProt P00167)	CYP3A4 N-terminally truncated (Homo sapiens, UniProt P08684)	testosterone 6β-hydroxylation		added: CPR	baseline: without b5, higher = greater b5 stimulation	catalytic efficiency ratio	2.7
B2 (Cacng2)	Gria2 mature (Rattus norvegicus, UniProt P19491)	kainate vs glutamate steady-state currents	oocytes, proteoliposomes		higher = larger kainate response	current ratio	0.5
Dnmt3l fragment F297A (Mus musculus)	Dnmt3a fragment (Mus musculus)	DNA methylation activity			baseline: wild-type complex, higher = greater loss of activity	methylation activity reduction	50%
DNAJB11 (Homo sapiens, UniProt Q9UBS4)	HSPA5 (Homo sapiens, UniProt P11021)	BiP ATPase activity, activator			baseline: intrinsic activity, higher = more stimulation	ATPase stimulation	> 20 fold
COP1 (Arabidopsis thaliana, UniProt P43254)	CRY2 (Arabidopsis thaliana, UniProt Q96524)	yeast three-hybrid		blue light, added: SPA1	baseline: dark, higher = stronger interaction	beta-galactosidase signal	> 5 fold
ARTKSTARKS (Histone H3.1 2-11 Q5S (Homo sapiens, UniProt P68431); sequence looked up)	KDM5A	competition with labeled peptide, fluorescence polarisation	peptide	added: H3 peptide		Ki	1850 nM
cyp102A1 flavin reductase domain (Bacillus megaterium)	CYP3A4 del3-12 (Homo sapiens, UniProt P08684)	BMR-dependent reduction	proteoliposomes	mono-exponential, added: ANF		rate constant	0.00087 s⁻¹
UGT1A9 (Homo sapiens, UniProt O60656)	O=c1c(O)c(-c2ccccc2O)oc2cc(O)cc(O)c12	steady-state kinetics		pH 7.4, 37 °C		Km	2.46 µM
EPB41 fragment (Homo sapiens)	SLC9A1 residues 506-575 (Rattus norvegicus)	resonant mirror				koff	0.0071 s⁻¹ and 0.0095 s⁻¹ and 0.0054 s⁻¹ and 0.0034 s⁻¹
Prickle2 (Mus musculus, UniProt Q80Y24)	Vangl2 (Mus musculus, UniProt Q91ZD4)	co-IP	HEK293T	0.5 µg	baseline: control, higher = more E-cadherin	E-cadherin coprecipitated	0.42 a.u.
ARSKQTARKS (Histone H3.1 2-11 T3S (Homo sapiens, UniProt P68431); sequence looked up)	KDM5A	competition with labeled peptide, fluorescence polarisation	peptide	added: H3 peptide		Ki	18800 nM
YAEKHRRAKLRLYLEQ (MXD4 D-site peptide (Homo sapiens))	MAPK8, pT183, pY185 (Homo sapiens, UniProt P45983)	kinase activity, inhibitor, competitive kinase inhibition assay	peptide	added: ATP 1 mM		IC50	1100 nM
ferredoxin 2 (Magnetococcus marinus)	2-oxoglutarate:ferredoxin oxidoreductase αβ heterodimer (Magnetococcus marinus)	2-oxoglutarate formation		electron donor, added: ferredoxin		CO2 reduction activity	6.3 min⁻¹

Substance	tested on	test	system	conditions	how to read	quantity	value
bradykinin mature (UniProt P01042)	BDKRB2 (Homo sapiens, UniProt P30411)	time-lapse	D54-MG-GFP	5 h	baseline: control, higher = faster	velocity increase	29.5%
WTGWCLNPEESTWGFCTGSF (Fc fusion of EC-1 peptide human IgG Fc (Homo sapiens))	ERBB2 (Homo sapiens, UniProt P04626)	LDH release cell death	Fc fusion, parental SKBR-3	1 µM, added: PBMC effector:target ratios	higher = more cell death	ADCC	70%
H[dS]QGTFTSDYSKYLDSRRAQ[dC]FVQWLMCTKRNRNNIA-NH2 (oxyntomodulin analog D21C/N28C, D-Ser2, D-Cys21, C-terminal amide; cysteine pairing not given here; D-Ser2, D-Cys21, C-terminal amide)	GCGR (Homo sapiens, UniProt P47871)	CRE luciferase reporter, agonist	peptide, HEK293			EC50	> 1000 nM
PRDX1 (Homo sapiens, UniProt Q06830)	FOXO3 (Homo sapiens, UniProt O43524)	FOXO dual-luciferase reporter	Prdx1-/- MEFs		higher = greater repression	reporter signal decrease	50%
Ser-Glu dipeptide, nanoparticle-coupled	SLC15A1 (Homo sapiens, UniProt P46059)	flow cytometry	AsPC-1	6 µg/mL, 12 hours h	baseline: unconjugated NPs, higher = more uptake	relative cell fluorescence	11.3 fold
B3 (Ric8b 1-483 A449W)	GNAL 1-381 (Homo sapiens, UniProt P38405)	luminescence	RIC-8B knockout HEK293T		baseline: wild-type Ric-8B, higher = more folding	sensor folding	36%
Lmod2 (Mus musculus, UniProt Q3UHZ5)	ACTA1 G-actin, pyrene label (UniProt P68135)	pyrene-actin polymerization nucleation, activator		5 nM, added: G-actin 3.0 µM, pCa	higher = shorter lag	lag time reduction	2.5 fold
PTPRZ1 Fc fusion extracellular C, F, S domains	Nrcam (Mus musculus, UniProt Q810U4)	neurite outgrowth, inhibitor	cerebellar cells	100 µg/mL, added: anti-Nr-CAM Fab' 100 µg/mL	higher = more inhibition	neurite outgrowth	> 40%
NGF mature (Homo sapiens, UniProt P01138)	NTRK1 extracellular and transmembrane domains (Homo sapiens)	FRET		380 nM	baseline: without ligand, higher = more stable dimer	dimer stability change	-2.63 kcal/mol
B4 (EnvC 278-419 V353A)	AmiB (Escherichia coli)	dye release from labelled sacculi, activator		1 µM	baseline: wild-type, higher = more activation	AmiB activation	10%
TIMP2 N-terminal domain S4E/V6R/V18M/I35V/N38Q/S68N/V71N/H97R	MMP10 99-263 (Homo sapiens, UniProt P09238)	fluorogenic substrate cleavage, inhibitor, enzyme inhibition assay		apparent		Ki	446 nM
FKBP1A (Homo sapiens, UniProt P62942)	RYR1, pS2843 (UniProt P11716)	single-channel gating	planar lipid bilayers			closed time	1.4 ms
FGF2 (Homo sapiens, UniProt P09038)	FGFR3 isoform IIIc (unknown, UniProt Q61851)	cell proliferation, MTT	BaF3-FGFR3c	20 nM, 48 h, added: heparosan 4.9 µg/mL	baseline: FGF 1 with heparin, higher = more proliferation	cell proliferation	8%
PAM18 K144R (Saccharomyces cerevisiae)	SSC1 V459F (Saccharomyces cerevisiae)	ATPase activity, activator		single turnover	baseline: basal rate, higher = more stimulation	fold stimulation of ATPase	9.3 fold
FGF14 fragment, N-terminal adamantanecarbonyl, Glu tert-butyl ester, C-terminal ethyl ester (Homo sapiens)	SCN8A 1767-1912 (Homo sapiens, UniProt Q9UQD0-1)	SPR				kon	2640 M⁻¹ s⁻¹

For quick reference, copied from above:
Substance	tested on	test	system	conditions	how to read	quantity	value
Lmod2 (Mus musculus, UniProt Q3UHZ5)	ACTA1 G-actin, pyrene label (UniProt P68135)	pyrene-actin polymerization nucleation, activator		5 nM, added: G-actin 3.0 µM, pCa	higher = shorter lag	lag time reduction	2.5 fold
ARTKSTARKS (Histone H3.1 2-11 Q5S (Homo sapiens, UniProt P68431); sequence looked up)	KDM5A	competition with labeled peptide, fluorescence polarisation	peptide	added: H3 peptide		Ki	1850 nM
